Published values of several laboratories.
Every numbered part comes from another study and shows a few of its results, in no order.

Set 1 — method: protein-binding microarray; form: double-stranded DNA, one strand shown; matrix: in vitro; tested at: not given; reading: higher = stronger binding
Target: Max dimerization protein 1, bHLH-zipper, MAX partner unstated (MXD1, Homo sapiens, UniProt Q05195, residues 56-136)
Setting: k-mer, scored over probes, only values ≥0.25
Construct (chain): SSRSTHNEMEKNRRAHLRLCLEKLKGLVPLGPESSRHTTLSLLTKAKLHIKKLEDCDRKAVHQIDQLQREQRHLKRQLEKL
| Oligonucleotide | E-score |
| --- | --- |
| ATGGTGTG | 0.285 |
| CCATGCCG | 0.368 |
| ATGAGGAG | 0.254 |
| ATGTCGAC | 0.251 |
| CACGGGAC | 0.263 |
| CACGCGTG | 0.466 |
| CATGGCTC | 0.269 |
| CATACATG | 0.279 |
| CTCGTGCA | 0.396 |
| CGCGTGGC | 0.428 |
| ACATCGTG | 0.308 |
| CCCACGGC | 0.251 |
| CACGCGGA | 0.429 |
| AACATATG | 0.291 |
| GTACACGA | 0.337 |
| GCCCCTCC | 0.362 |
| ATGCGTTC | 0.292 |
| AGCATGAG | 0.378 |
| ACATGCAT | 0.375 |
| ATACATGC | 0.294 |
| GCCCCACC | 0.283 |
| AGAACGTG | 0.336 |
| CATGTCCG | 0.335 |
| CAGCACGA | 0.275 |
| CCGGCCCC | 0.285 |

Set 2 — method: RNA Bind-n-Seq; form: RNA; matrix: in vitro; tested at: not given; setting: RNA with constant flanks, ends assumed; reference: input RNA pool; reading: higher = stronger binding
Target: RING finger protein unkempt homolog, zinc fingers 1-6, GST-SBP tag (UNK, Homo sapiens, UniProt Q9C0B0, residues 30-357)
All sequences stand within: GGGAGUUCUACAGUCCGACGAUC … CAACAGAGGAUUGAGCAUCA
Residues (chain): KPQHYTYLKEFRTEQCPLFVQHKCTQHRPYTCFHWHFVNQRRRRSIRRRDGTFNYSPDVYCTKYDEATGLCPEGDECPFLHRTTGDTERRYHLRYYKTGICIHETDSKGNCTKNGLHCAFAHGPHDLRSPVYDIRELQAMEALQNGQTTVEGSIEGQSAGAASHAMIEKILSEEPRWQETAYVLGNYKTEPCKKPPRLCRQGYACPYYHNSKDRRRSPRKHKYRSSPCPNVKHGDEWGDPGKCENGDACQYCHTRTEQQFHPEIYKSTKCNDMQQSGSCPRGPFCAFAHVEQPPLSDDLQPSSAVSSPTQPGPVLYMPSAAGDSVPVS
| Oligonucleotide | bound/input enrichment |
| --- | --- |
| AUCUUUGGCUAGUGCUUUUCAAUUAUCUGAAGAUGGAGACUCAAUUCCUUAUACUAUUAACCGGUACUUGCGAGAUUACCAAAGGGAGGGGGCUCAGUUCCUCUACAGACACUACAUAGA | 0.61 ratio |
| AAACGCCGUUUCAGGAAGUUCCUGGUUUAUGUUGCCAACUUUGAUGAAAAAGAUCCCCGAACUUUCGAGGGUGUUGAUCCUAAGAAGACCUCCAUGAGAGAUGUGUAUAAGAAGUUUGAU | 0.199 ratio |
| GACUAUCACUUUGUCAUUUCUAGAGAACAAAUGGAGAAAGAUAUCCAAGAGCACAAAUUUACCGAAGCUGGCCAGUACAAUGACAAUUUAUACGGAACCAGUGUGCAAUCUGUGAGAUUU | 0.315 ratio |
| GCAGUCCGCAGAACGGAAACUGGACGCAUUGGAUUAGAAGGCUGCCUUUGUCAAGAUUUUUACCGGAUAAGAGACCUUUUAUAUGAACAAUAUGCCAUUGUAUAAAGGACAUGAUGUCAA | 0.13 ratio |
| GGCUUUGCUUUACUUUUUUACCUUGAACAACUGCUUGGAGGACCAGAGAUUUUCCCCGGAUUCUUAAAAGCUUAUGUUGAGAAGUUUUCCUAUAAGAGCAUAACUACUGAUGACUGGAAG | 0.217 ratio |
| UAAUAAUUAGCUAUUUUAUAAAGGUAACGAGAAAAAAUACACUAUGUCUGAUGAAGUUUUCCGCACCACUUUGGCAUAUACAAAGAGUCCAAAAGUUACCAAAAGAACUACUUUCCAGGA | 4.24 ratio |
| UAUUGAAUUGCUGAGGAUUUUGGGAAAAGACAAAUCAAAGUUCCCAUUCCAUGGAUCCCUCCGGUGCACCUUCCCAGUUUGUGGAUGUGGAUACACUACCAAGCUGGGGUGACUCAUGCC | 0.0977 ratio |
| CUUCCCCUUAAAUAAUUGUGUUCAUUUUUGUUUUGUUUCCUUGUGUACUCCAGCAUUGGUUACCGUCAUGGGAAAGGAAGGUGUCCACGCAGGCACAAUUAACAAGAAAACAUAUGAACU | 0.33 ratio |
| GGGAGCAUUGGUGAAAUAGAAUCCUGCAAACUCGUGAGAGACAAAAUCACAGGACAGAGUUCCGGGUAUGGAUUUGUUAACUAUAUUGAUCCAAAGGAUGCAGAGAAAGCCAUCAACACU | 0.236 ratio |
| CCUCCAGAGUUCGGAUUUCCUGAGAAGAUAACAGUGAAACAGCGUUAUCGCCUACUUGGAAACCGUCUCAACGUGCAUGUAGUAGCUAAACUAAUCAAAAUCUUAUAUGAAUAAUUUUGA | 1.47 ratio |
| GACCCCCACUCCCUGUGAGAGGGAAUGGGGGAAGCCUGAUGACCCUCAGCUGUUCCAAUCCCGUAUUUUUUUUCUUUUUUAAAAUUACUGUAUUUAUUAUGACGAUGGUGACUCCCCAGU | 3.95 ratio |

Set 3 — method: RNA Bind-n-Seq; form: RNA; matrix: in vitro; tested at: 365 nM; reference: no-protein control; reading: higher = stronger binding
Target: RNA binding protein fox-1 homolog 2, RRM domain, GST-SBP tag (RBFOX2, Homo sapiens, UniProt O43251-10, residues 100-194)
Setting: natural RNA segment, single round, ends assumed
All sequences stand within: GGGAGUUCUACAGUCCGACGAUC … UGGAAUUCUCGGGUGCCAA
| Oligonucleotide | RBNS enrichment (R) |
| --- | --- |
| GUGUUUGCUGUCAUGCCCCAUGAGUAGCUCCUUACUUGGUCUGCUCAGGGCAUCCUAGGGAAUGUUCCUUUCCCCCACUCCUCCCUCCCUACCGUGGUGGAUUCCCAGCU | 0.434 |
| UAAUUUUAAUUUUAUUUUAUACAACGUGUAGACGGUUCCCUGUUCUCUGCAUUUAGAAGUAUACACAGUACAACUGUUAAUUCUGUAAGUAAUUUUUAUAAUUAUGAUGU | 1.03 |
| UCUUAGGUUGGAGAUGACAGAAAUAUGAUUGAUUUGAAGUGGAAAAAGAAAUUCUGUUAAUGUUAAUUAAAGUAAAAUUAUUCCCUGAAUUGUUUGAUAUUGUCACCUAG | 0.721 |
| UACUUCUUUUCUUUUUGCAUUAUCUUGUUUUGGUUUUGUGCUGUAAUAGAAGUUCACUUAGCUACUUUAGAUAACCUUGCAUUACCACUGGUCUGGCCACGUUUGUUAAA | 1.6 |
| UGCCCUGAAGGAAGAAGACAUCAGUAGAAAAGGGAACUGACAGCACUGACUGCAAACUGUCUCUUGCUCCUGAACUUCAAUAGCUGCCUUCCUCACCGCAGAUGUCUGUC | 0.517 |
| GGGAGGCUGUGGUCGCUGCCGGCCUAGGUGUCCCAGGUGCCCCGCCUUUCUCUGGGACACAGUUGGGGGCUGGCUUCUGAGGGAUUCCUUUCUCCCCUCUUUGUGUGGCC | 0.585 |
| GAAUUAAUACAGACACCAGAUUUUAGGCUUUGAAUUUGUUCUUAGUUGUUCAUUCCAGUCCUCUAAGUCUCAUUUCGUAUACAUUAUAUAAGCAAAUUAAGAAUUACUCA | 0.54 |
| UUUAGUUUUUGCCUUCAUGUUAUACAUUUAUGAUUUGAAACUGUACAUCUGUUACCUUGAAAAACAUUGAAGAAAGUACUGAAGUGUGCAUGGAGGUGGUUUAAGCAUAA | 2.11 |
| GGUCCUGGUUUCCAAUUUGGGUUCUGCUGUGUGACUCUGGGCAAGUCACUCUCCCUCUCUGGGCAUGUCUGCUACAAAUGGACAAGAUUAUUUCAGAGGUCACUGAAGAC | 1.48 |
| UUCCCACCACAAAUUAUCAACUGGUUGAUGUGUACACUAAUUACAUUUCAGGAGGACUUAAUGCUAUUUAUGUUGUGCCUCUGCAGGCAAAGCCCUUAAUAAAUAUUUUA | 0.78 |
| UUGAGAUCAGAUCAUAACUCACUUGCCCAGAGGCAGCAGAAAUCUGAUCCUACUACUGGAGCUUAAAAAUAACAAUUAAUGAAAAGUGUUAGAAACAAGGCUACAGUUUU | 0.36 |
| CCAGUCCCAACACCUGUCCUGUGUCUCAGGGUGGUCCUAGCUUCUCCUUAGGCAGCCAGGAAUUGGAACCCCCAUGCCCGCAGCACGUUUUUCUUAUGAUCAGGGAGUGU | 2.31 |

Set 4 — target: Sox, HMG box (Pigoraptor chileana); method: Spec-seq; form: double-stranded DNA, one strand shown; matrix: in vitro; tested at: not given; setting: whole probe, mean of replicates; reference: not given; reading: lower = stronger binding; all sequences stand within: GAGTCGTCTCGTCAGCAC … CCGTAGAGCACTCAGGTC
Construct (chain): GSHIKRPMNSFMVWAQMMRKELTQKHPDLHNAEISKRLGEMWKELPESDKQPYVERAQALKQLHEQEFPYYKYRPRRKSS
| Oligonucleotide | relative binding energy [ln ratio] |
| --- | --- |
| GCCTGTT | -0.545 |
| AGATGTT | -0.297 |
| AAGGGTT | -0.942 |
| CATCACT | 0.437 |
| CATTAGC | 0.265 |
| CATTATG | -1.79 |
| ATCAGTT | -0.0431 |
| CATCTCG | 0.534 |
| CATCGTG | 0.393 |
| CATGATG | 0.31 |
| GACAGTT | -0.0211 |
| CATAAAA | -0.422 |
| CATAGCT | -0.211 |
| CACAGTT | -0.106 |
| CGTAGTT | 0.662 |
| CATTTGA | 0.437 |
| TCTGGTT | 0.604 |
| CATTAGT | 0.115 |

Set 5 — method: universal PBM; form: double-stranded DNA, one strand shown; matrix: in vitro; tested at: 600 nM; reading: higher = stronger binding
Target: Sal-like protein 4, full length isoform A (SALL4, Homo sapiens, UniProt Q9UJQ4, residues 1-1053)
UniProt Q9UJQ4, sequence (whole entry, looked up): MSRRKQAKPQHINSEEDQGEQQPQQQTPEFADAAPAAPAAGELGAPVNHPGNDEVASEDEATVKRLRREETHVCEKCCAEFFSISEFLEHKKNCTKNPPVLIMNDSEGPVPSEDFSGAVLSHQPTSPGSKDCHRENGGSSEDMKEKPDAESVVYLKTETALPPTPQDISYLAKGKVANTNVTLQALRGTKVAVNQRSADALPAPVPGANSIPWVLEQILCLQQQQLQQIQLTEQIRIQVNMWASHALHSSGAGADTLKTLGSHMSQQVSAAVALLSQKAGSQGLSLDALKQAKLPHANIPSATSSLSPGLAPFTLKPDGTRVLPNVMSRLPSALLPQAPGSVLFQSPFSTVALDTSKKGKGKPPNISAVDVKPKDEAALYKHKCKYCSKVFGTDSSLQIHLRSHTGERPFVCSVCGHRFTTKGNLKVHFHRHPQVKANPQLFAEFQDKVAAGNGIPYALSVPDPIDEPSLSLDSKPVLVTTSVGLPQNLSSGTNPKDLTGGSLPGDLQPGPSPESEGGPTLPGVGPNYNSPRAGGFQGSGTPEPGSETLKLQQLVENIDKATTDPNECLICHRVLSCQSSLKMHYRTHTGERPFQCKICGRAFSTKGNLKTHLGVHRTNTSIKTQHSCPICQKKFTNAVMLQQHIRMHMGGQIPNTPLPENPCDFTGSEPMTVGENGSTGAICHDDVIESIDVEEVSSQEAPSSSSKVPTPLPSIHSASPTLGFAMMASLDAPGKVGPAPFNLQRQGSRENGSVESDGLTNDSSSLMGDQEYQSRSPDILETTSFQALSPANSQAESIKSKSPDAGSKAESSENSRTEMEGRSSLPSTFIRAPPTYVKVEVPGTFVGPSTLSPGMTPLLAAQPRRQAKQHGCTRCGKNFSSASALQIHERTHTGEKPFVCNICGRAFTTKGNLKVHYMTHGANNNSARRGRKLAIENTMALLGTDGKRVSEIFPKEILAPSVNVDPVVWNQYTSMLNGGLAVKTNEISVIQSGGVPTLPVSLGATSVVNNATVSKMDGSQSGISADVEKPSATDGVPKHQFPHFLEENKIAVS
Setting: 8-mer, flanks averaged, mean of replicates
| Oligonucleotide | E-score |
| --- | --- |
| ATGGTTTG | -0.0563 |
| ATTCAGGG | -0.0474 |
| CCGTATTC | 0.0359 |
| AATTTCCT | 0.23 |
| ACCCACAG | -0.0802 |
| AGCATGTA | 0.149 |
| GCCGGGAA | -0.38 |
| GAGTGCGC | -0.302 |
| CATTTTAG | 0.229 |
| ACGCAGTA | -0.0356 |
| GCGGACCA | -0.23 |
| AGAACACG | 0.0218 |
| GCCAGCTA | -0.289 |
| GTCCCTGA | -0.175 |
| AGACTATC | 0.00817 |
| CGGTGTCC | -0.389 |
| ACCGATAG | -0.00719 |
